Measurements from different studies.
A part holds a random share of what one study measured. Values joined by “and” are separate records of one study, mostly repeats; a detail may differ. Positions count from the first letter of the parent shown.

Set 1 — effect on: binding; technique: phage display NGS; form: peptide; tested at: concentration not given; setting: normalized abundance; reference: input library; measurement: enrichment fold change
Target: UDP-N-acetylglucosamine--peptide N-acetylglucosaminyltransferase 110 kDa subunit (OGT, Homo sapiens, UniProt O15294)
UniProt O15294, sequence (whole entry, looked up): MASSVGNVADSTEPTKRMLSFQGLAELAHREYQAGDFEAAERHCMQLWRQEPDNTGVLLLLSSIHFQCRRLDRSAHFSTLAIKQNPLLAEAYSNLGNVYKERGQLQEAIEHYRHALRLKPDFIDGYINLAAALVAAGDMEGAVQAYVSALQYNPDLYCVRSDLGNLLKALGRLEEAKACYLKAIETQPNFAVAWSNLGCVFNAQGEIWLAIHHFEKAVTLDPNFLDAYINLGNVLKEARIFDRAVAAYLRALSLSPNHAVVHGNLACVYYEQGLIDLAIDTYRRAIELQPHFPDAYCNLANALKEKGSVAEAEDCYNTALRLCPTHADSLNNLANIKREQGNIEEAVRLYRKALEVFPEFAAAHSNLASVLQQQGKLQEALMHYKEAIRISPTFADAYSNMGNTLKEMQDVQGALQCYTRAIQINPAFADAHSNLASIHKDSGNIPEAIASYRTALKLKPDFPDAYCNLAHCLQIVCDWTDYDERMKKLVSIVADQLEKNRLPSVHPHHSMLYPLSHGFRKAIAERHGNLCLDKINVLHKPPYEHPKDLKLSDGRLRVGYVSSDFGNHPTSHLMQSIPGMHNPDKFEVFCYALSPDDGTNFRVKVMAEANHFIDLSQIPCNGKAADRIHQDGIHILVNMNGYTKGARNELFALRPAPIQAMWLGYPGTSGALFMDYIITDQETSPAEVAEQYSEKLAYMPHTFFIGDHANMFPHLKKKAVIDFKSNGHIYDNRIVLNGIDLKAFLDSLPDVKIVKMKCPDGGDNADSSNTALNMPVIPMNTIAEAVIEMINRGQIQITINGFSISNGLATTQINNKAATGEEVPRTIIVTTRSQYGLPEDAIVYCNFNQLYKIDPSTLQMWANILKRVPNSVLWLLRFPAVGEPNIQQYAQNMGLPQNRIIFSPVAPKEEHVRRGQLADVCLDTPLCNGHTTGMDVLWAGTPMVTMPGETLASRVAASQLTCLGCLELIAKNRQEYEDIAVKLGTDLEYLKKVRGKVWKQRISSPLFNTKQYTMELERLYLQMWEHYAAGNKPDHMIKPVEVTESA
TWRVPHLPPRYHEEV: 6.56
TMRHTHDWIWQHGVQ: 10.8
SYIPGRVFPPQYQIT: 3.29
RELNPVYMIDYTMAV: 6.33
HYRTDHFKPDHHIHT: 12.4
DHDHLWQRLHDGHTS: 7.01
QDLEQHMFMHHHDKH: 6.09
QLYPVDKHHTHHHVT: 8.39

Set 2 — mode: agonist; measurement: EC50
Target: Beta-1 adrenergic receptor (ADRB1, Homo sapiens, UniProt P08588)
UniProt P08588, sequence (whole entry, looked up): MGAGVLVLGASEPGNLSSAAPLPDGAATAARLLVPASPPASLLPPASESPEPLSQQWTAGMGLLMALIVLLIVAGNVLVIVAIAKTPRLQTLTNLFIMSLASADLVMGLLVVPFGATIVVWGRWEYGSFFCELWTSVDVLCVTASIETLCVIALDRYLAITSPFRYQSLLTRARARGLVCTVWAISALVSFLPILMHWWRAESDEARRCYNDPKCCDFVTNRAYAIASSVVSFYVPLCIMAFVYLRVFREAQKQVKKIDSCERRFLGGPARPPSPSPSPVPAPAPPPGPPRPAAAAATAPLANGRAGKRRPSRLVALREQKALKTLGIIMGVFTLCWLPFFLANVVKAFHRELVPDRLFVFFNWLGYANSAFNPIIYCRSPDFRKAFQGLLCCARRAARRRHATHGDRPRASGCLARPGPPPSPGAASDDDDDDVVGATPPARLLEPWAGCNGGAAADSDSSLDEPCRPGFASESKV
CC(Cc1ccccc1)NCCN1CCOCC1 (centres unmarked): ≥ 100 µM
c1cc(N2CCNCC2)c2cnccc2c1: ≥ 100 µM
COc1ccccc1N1CCN(Cc2ccc(C#N)cc2)CC1: ≥ 100 µM

Set 3 — effect on: cell-free assay; tested at: 10 µM; measurement: inhibition
Target: Sodium-dependent noradrenaline transporter (SLC6A2, Homo sapiens, UniProt P23975)
UniProt P23975, sequence (whole entry, looked up): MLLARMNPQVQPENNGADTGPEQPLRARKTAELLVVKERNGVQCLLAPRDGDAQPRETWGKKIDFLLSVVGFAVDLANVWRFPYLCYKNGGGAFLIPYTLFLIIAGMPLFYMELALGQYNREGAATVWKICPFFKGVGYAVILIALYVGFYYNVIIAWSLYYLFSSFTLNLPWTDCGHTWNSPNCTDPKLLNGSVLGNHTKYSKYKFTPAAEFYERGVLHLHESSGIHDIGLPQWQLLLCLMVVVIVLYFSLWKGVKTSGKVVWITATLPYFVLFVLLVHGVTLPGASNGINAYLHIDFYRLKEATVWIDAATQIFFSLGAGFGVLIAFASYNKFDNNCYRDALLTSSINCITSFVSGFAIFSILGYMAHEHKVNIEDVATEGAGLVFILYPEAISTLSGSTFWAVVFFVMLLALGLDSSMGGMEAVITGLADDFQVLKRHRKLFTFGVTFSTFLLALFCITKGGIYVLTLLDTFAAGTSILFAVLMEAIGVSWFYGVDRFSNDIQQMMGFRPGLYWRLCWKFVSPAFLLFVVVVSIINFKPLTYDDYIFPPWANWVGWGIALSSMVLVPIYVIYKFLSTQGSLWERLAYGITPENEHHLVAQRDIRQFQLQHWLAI
O=C(NNS(=O)(=O)c1ccccc1)c1cc(-c2ccnnc2)ccc1F: -2.4%
CC(=O)Nc1c(C(C)=O)c(=O)n(C)c2nc(-c3ccc(Cl)cc3Cl)c(-c3ccc(Cl)cc3)cc12: 15.5%
C[C@H](c1ccc(F)cc1)N(Cc1ccc(Cl)c(C(=O)O)c1)C(=O)c1cnc2ccccc2c1: -9.65%
CC1=C(C#N)C(c2ccc3[nH]nc(C)c3c2)C(C#N)=C(C)N1: -28.1%
O=C(NCCCC1CCCCC1)c1ccc(CNC(=O)c2cnn(-c3ccccc3)c2C(F)(F)F)cc1: -1.78%
CN(C)c1ncnc(-c2ccc3nc(Nc4cc(CN5CCN(C(=O)CC(F)(F)F)CC5)ccn4)[nH]c3c2)c1Cl: -29.4%
FC(F)(F)c1ccc2c(c1)nc(-c1cccnc1)n2C1CC1: 17.2%
O=c1nc(-c2ccccn2)sc2ccccc12: -0.363%
Cc1ncc(-c2cc(Cl)ccc2F)cc1-n1c(=O)n(CC(N)=O)c2ccccc21: -13.5%
O=C(NNS(=O)(=O)c1ccccc1F)c1cc(F)cc(-c2ccccn2)c1: -15.5%
CC1CCN(c2ccnc(NCc3cn(C)cn3)n2)CC1: 75.8%
Nc1cnc(N2CCc3cc(S(=O)(=O)Nc4c(F)cc(Cl)cc4F)cc(N4CCCC4=O)c32)nc1: 18.2%
Cn1nc(C(F)(F)F)cc1-c1cnc(N2CCc3cc(S(=O)(=O)Nc4c(F)cc(Cl)cc4F)cc(N4CCCC4=O)c32)nc1: 5.69%
CCOc1cc(N2C3COCC2CN(C(=O)[C@H]2C[C@H](O)CN2c2ccc(Cl)cc2)C3)ccc1Cl: 1.24%

Set 4 — target: CCND1, cyclin fold, Cln2 fusion (human); technique: yeast growth competition, sequencing; matrix: yeast; setting: strong parent motif; reference: not given; reading: higher = stronger binding; measurement: normalised enrichment score; parent: viral docking peptide; YKVKRRLVFGADD
YKVKRRLVFGMDD [A11M]: 1.9
YKNKRRLVFGADD [V3N]: 0.39
YKVKRRLMFGADD [V8M]: 1.33
YKVKRKLVFGADD [R6K]: 2.92
YKVKRRLVFGNDD [A11N]: 2.74
YKVKIRLVFGADD [R5I]: 0.195
YKVKRRLVEGADD [F9E]: -0.109
YFVKRRLVFGADD [K2F]: 0.635

Other studies, line by line
CC(C)S(=O)(=O)c1cc2c(Nc3ccc4sc(C5CCCC5)nc4c3)ccnc2cc1OCCO
survival (L929 RIPK3-/- reexpressing RIPK3 K51A; CCK-8; 50 µM, with: zVAD): 13% and 13.3% and 11.4% and 13.2%

CC12NC(Cc3ccccc31)c1ccccc12 (single isomer, unassigned; (+))
nuclei count (mouse MPNST tumor cells; high-content nuclear imaging, refers to: cell number; 10 µM, 12 h, mean of 2 replicates; reference: plate mean, higher = more cells): 1.12 z-score
